Measurements collected from several papers.
Numbered parts are unrelated; each lists some results of a single study. Positions count from the first letter of the parent shown.

Study 1 — technique: protein binding microarray; molecule type: double-stranded DNA, one strand shown; matrix: in vitro; tested at: not given; baseline: not given; direction: higher = stronger binding
Target: Histone acetyltransferase KAT6A, winged helix 2, GST fusion (KAT6A, Homo sapiens, UniProt Q92794, residues 85-181)
Notes: 8-mer, flanks averaged, mean of 2 arrays, mostly near background
Residues (chain): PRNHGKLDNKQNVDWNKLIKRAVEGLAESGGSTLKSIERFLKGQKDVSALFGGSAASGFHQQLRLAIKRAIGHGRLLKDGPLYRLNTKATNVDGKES
Strand	E-score
ATTGGAGC	-0.0427
CATCAAGC	0.079
ACAGCCCC	-0.144
AATCATAC	-0.00301
GAAAAAGC	0.108
CCTATGGA	-0.149
GTAGGATA	-0.161
CATACGTA	-0.116
AATTCCAG	0.0713
CCCTGCCA	0.0427
AAGTTGAA	0.0415
CCTCTCTC	-0.16
ACAGGGCA	0.0281
AAAAGTCA	-0.0838
GTCTTCGA	0.13
GGGGTTAC	-0.274
CTGACTCA	-0.0828
CGGATACA	-0.108
ACATCGCC	-0.0366
ATCCGATG	0.0711
GCCCTTGA	0.0438
GATTTAGA	-0.016
CGCCCCCG	0.249
ACGTTTAC	-0.202
AGCAAGGA	-0.0101

Study 2 — technique: universal PBM; molecule type: double-stranded DNA, one strand shown; matrix: in vitro; tested at: 600 nM; direction: higher = stronger binding
Target: Sal-like protein 4, full length isoform A (SALL4, Homo sapiens, UniProt Q9UJQ4, residues 1-1053)
UniProt Q9UJQ4, sequence (whole entry, looked up): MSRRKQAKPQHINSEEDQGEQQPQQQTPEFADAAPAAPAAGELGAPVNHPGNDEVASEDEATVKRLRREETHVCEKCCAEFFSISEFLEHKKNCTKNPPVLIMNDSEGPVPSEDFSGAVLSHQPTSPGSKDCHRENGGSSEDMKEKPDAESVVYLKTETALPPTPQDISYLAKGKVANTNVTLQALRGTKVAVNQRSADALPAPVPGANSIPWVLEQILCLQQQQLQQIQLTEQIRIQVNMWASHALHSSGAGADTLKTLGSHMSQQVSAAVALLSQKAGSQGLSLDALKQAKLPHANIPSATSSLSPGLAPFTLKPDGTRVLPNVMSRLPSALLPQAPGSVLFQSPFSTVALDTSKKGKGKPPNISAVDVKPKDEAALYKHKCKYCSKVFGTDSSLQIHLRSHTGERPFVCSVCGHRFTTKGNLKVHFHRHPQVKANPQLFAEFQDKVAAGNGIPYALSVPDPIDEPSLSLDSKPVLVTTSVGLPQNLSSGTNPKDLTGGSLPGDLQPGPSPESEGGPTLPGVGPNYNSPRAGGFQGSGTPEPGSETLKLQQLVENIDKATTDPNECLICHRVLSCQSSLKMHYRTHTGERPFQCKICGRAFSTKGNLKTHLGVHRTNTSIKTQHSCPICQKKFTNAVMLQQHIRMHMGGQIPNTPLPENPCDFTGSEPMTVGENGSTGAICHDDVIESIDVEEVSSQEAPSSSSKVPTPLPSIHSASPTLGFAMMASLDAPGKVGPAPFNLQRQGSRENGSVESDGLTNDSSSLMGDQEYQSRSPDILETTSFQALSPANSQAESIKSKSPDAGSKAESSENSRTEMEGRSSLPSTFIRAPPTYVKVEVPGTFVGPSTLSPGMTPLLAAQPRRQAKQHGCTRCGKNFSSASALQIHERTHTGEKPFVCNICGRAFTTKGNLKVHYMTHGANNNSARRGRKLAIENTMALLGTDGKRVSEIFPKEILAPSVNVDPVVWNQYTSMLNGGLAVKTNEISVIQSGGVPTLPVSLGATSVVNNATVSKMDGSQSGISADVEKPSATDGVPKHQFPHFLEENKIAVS
Notes: 8-mer, flanks averaged, mean of replicates
Strand	E-score
GAAAGAAA	0.229
GCTTTACA	0.0259
GGCTAGAC	-0.172
AGGGGACG	-0.275
ACTATGGG	-0.101
AACCGGAT	-0.0218
GCCGCAGA	-0.234
GGGACAAC	-0.264
ATCTGCCA	-0.0937
CCATAGAC	-0.0343
TGACACAA	0.163
CTGCATGC	-0.133
ACTTTCCG	0.0166
AATGACAC	0.134
CTTTAGCA	-0.037
ACACGTCT	-0.0042

Study 3 — technique: RNA Bind-n-Seq; molecule type: RNA; matrix: in vitro; tested at: 20 nM; notes: 6-mer, flanks averaged, single round; with: 150 mM KCl; baseline: input library; direction: higher = stronger binding
Target: TAR DNA-binding protein 43, full length, His tag (TARDBP, Homo sapiens, UniProt Q13148, residues 1-414)
Strand	6-mer enrichment (R)
GUGUCG	1.32
AGAGCU	0.79
AAAUAG	0.693
UUGUUG	0.812
UCUCCU	0.575
CGUGGC	1.37
UUGAGA	0.801
UACAAU	0.663
AAGUCU	0.578
GUAUCA	0.632
GGUACG	1.81
UUGGAA	0.786
GACUGA	0.929
GCCUGC	0.862
UAGAGG	1.75
GCCUUU	0.683
UGGCAC	0.917
GAUUAG	0.823

Study 4 — target: CCNB1, cyclin fold, Cln2 fusion (human); technique: yeast growth competition, sequencing; matrix: yeast; notes: weak parent motif; baseline: not given; direction: higher = stronger binding
Starting sequence: E2F3 docking peptide (human); PPAKRRLELGESG
Substitution	normalised enrichment score
APAKRRLELGESG [P1A]	0.638
PPAKRRLEAGESG [L9A]	0.538
PPAKRRLELGESA [G13A]	-0.162
PAAKRRLELGESG [P2A]	0.492
PPAARRLELGESG [K4A]	0.426
PPAKRRLELGEAG [S12A]	0.383
PPAKRRLEFGESG [L9F]	1.8

Study 5 — technique: protein-binding microarray; molecule type: double-stranded DNA, one strand shown; matrix: in vitro; tested at: 250 nM; notes: 60-bp whole probe; with: salmon DNA 0.4 mg/ml; baseline: random background probes; direction: higher = stronger binding; constant ends, left off below: GCCTAGCAC … GTCTTGATTCGCTTGACGCTGCTG
Target: Interferon regulatory factor 5, full length, phosphomimetic (IRF5, Homo sapiens, UniProt Q13568-2, residues 1-514, K96S/S451D/S453D/S456D/S462D)
Strand	log fluorescence
TTAGGTATCGACACTGGATTAGTGCTA	2.73 z-score
GACGACCTCAGTCTCGAGACGTGCTAG	-0.136 z-score
ACTTTTTTTTTTCCCTGAAAGTGCTAG	1.84 z-score
TCCATTTTGTGTTTTCATTTGTGCTAG	1.84 z-score
TCGGGTCTCCCTTGAGGTTTGTGCTAG	-0.456 z-score
TTACATCTCAGTATCGATTAGTGCTAG	7.1 z-score
AGTGTTACCCCTCATCAACCAGTGCTA	-0.00863 z-score
GACGGTTCCGGGACTGGGGACGTGCTA	-0.0319 z-score
ATAGAACTGGGGACTGGATTAGTGCTA	-0.103 z-score
TTAGGACTGTTTTTCCTTTAGTGCTAG	0.392 z-score
TGCACTCTTTACATGGGTTTGTGCTAG	0.155 z-score
GACGATTTCTGTATCGAGACGTGCTAG	3.02 z-score
AAGGGTCTCTTGTTCTCTCTGTGCTAG	-0.226 z-score
GACGGTCCCGGTCTCGGGACGTGCTAG	-0.231 z-score
TGGAGAGTAGCTTTCTGAGGGTGCTAG	0.152 z-score
TCATTTATGCACTCTCTAACTGTGCTA	0.585 z-score
TTAGGTTTCGGTCTCGGTCAGTGCTAG	10.2 z-score
TGTGCCATATTTATCTGCAAGTGCTAG	0.213 z-score
GACGGACGGGACTATCGGGACGTGCTA	0.829 z-score
GACGGTATCCTTCTGCTGACGTGCTAG	0.17 z-score
GCCGATTTCAGTCTCGAGACGTGCTAG	2.13 z-score
GTCGGTTTCGGTTCCGGGACGTGCTAG	10.3 z-score
CAGAGCCTCAGGCCTCACACAGTGCTA	-0.811 z-score
TTAGGACTGGGATATCGGTTAGTGCTA	0.96 z-score
TTATGACTGGGTCTCGGTTAGTGCTAG	0.161 z-score

Study 6 — technique: RNA Bind-n-Seq; molecule type: RNA; matrix: in vitro; tested at: 365 nM; baseline: no-protein control; direction: higher = stronger binding
Target: RNA binding protein fox-1 homolog 2, RRM domain, GST-SBP tag (RBFOX2, Homo sapiens, UniProt O43251-10, residues 100-194)
Notes: natural RNA segment, single round, ends assumed
Constant ends, left off below: GGGAGUUCUACAGUCCGACGAUC … UGGAAUUCUCGGGUGCCAA
Residues (chain): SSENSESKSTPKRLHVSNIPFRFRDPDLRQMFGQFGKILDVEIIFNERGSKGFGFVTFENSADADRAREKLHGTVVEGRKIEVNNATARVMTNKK
Strand	RBNS enrichment (R)
GAUAACAUUGAACAUGUUCAUAUUGAUAGAGAUAAUAUUGUAUAGGUCUAGUGUGUAUGGAUCUGGGAUCUCCGCCCUUGAGGCAGAGACGGGAAGAUCAGGAGUUCAAG	0.438
GACCCAAGGGCCCUUUGGUGUGUAGUGUACAGCACCUUAUUUUAGCAUCAAUAAAUCCAUUAUCCAGUUUUUGAAAAAUCAACUCCAAGGACUGGGUUUAUCUUUCAGUU	0.552
CUGUCCUUCCACACCAAAGACAUGGUGGUGCUGCUGCUGCUGCUUCUGCUGGUGAAGUCUGUGUCCAAGGCAGGGGCCAGCAGAAACUCCAGCCUGCUGUCUACCAAAGG	0.266
GUGGUUGGGGCAUUUUUAAAUGGCUGGCUACACUUGUUUUCCCUCAUGAUAAUUUGUCAUAACUCAGUAGCAUGACCUGCCCCUAGAAGGUAGUUAAAAUUUGUAAAUGC	1.05
CAGAUGAAUAUCUGACAAAGCAGUGGAGGUAUCCGAUUGAGCUUCAUGGCAUUGGUAAAUAUGGCAACGACUCCUACCGGAUCUUUUGUGUCAAUGAAUGGAAGCAGGUG	1.02
GACUUUUGUGUUAAGGAUGUGUUGUGUGCUGGUAGAUGUUCAGGAGUGGCUCUGACCCCCAACCUACUCUGGGCACCUUCCUACCCCCAUCUCUCCAGCAACAAUAACCU	0.454
AAUUUUUAGUUGCUCUUUGUUUUCUCUGCCGCACUUUCCUGGUGCCCCACGCUUUUCUCUCUUCCUUCCCCUCUCAUUCUCCCUCUAAUGUGUGGUGCUUUGGUGAGCAA	0.393
UGUACACUUUUAGAGUUAUAGUGCCUGAUAAUAUUUUUUGAGAGCCUUUAAUAUGAUAUAGGAAGGCAGAUACAUUGAUAUCACUUGUAGAACUACUUUGGAAUUUAUCU	0.623
GUUAUGCCAGUGGAUCUCACGCCUCUGUGCAUCACCUAUCUUUGGUUUGUGAAGGCAGCAGUUAAGGGCACAAAGACAGCCAUGGGGACAUUUAUGUAAAUAUGUUUAAU	0.364
CUUCAGAAGUUUGCUUCUUAUGGUAUAAUAAAGUAUGGAAGAAUAUUGAGUAUAUGUUUACUCUGGGCCUGGGAGAACUUAACUUUCUAGAGCAGUUUGUUGACUUGUGU	0.695
CACUCUGCAUUAUAGCAGCAGCUUAUUUCUCUAAGGCUGGACAGCCUGGCUCUCGGCAGUGACGUCCUCCCACACCUGGUCACAAGUAGUAGUGGCUGUGCUAUACCCAG	0.342
AGUAGCACAGAUGUCUGCUCCUCCUCUUGAACUUGGGUGGGAAACCCCACCCAAAAGCCCCCUUUGUUACUUAGGCAAUUCCCCUUCCCUGACUCCCGAGGGCUAGGGCU	0.354

Study 7 — technique: aptamer microarray, sandwich; molecule type: DNA with 2'F-ANA; matrix: in vitro; tested at: 200 nM; with: Cy3 exosite-II aptamer, 400 nM; direction: higher = stronger binding; strand: GGTTGGTGTGGTTGG
Target: Prothrombin, mature alpha-thrombin (F2, Homo sapiens, UniProt P00734)
Notes: whole 15-mer aptamer, many near background
Modification	mean fluorescence intensity [a.u.]
2'F-ANA at 2 3 4 6 7 9 10 14	164
2'F-ANA at 1 4 7 8 9 12 15	337
2'F-ANA at 5 6 8 11 13 15	56.5
2'F-ANA at 1 3 9 11 13 14 15	76.5
2'F-ANA at 2 4 5 6 7 8 10 13	49.8
2'F-ANA at 2 3 4 5 9 12 13	133
2'F-ANA at 2 3 9 10 11 12 15	387
2'F-ANA at 1 2 4 5 6 8 9 11 12 14 15	57.8
2'F-ANA at 1 2 3 4 9 12	354
2'F-ANA at 2 4 5 7 12	135
2'F-ANA at 3 4 5 7 9 14 15	55.4
2'F-ANA at 4 5 12 14 15	49.7
2'F-ANA at 2 3 4 5 6 7 8 12 13 14	72.4
2'F-ANA at 5 7 8 13	59.9
2'F-ANA at 1 2 3 5 8 9 14	49.7
2'F-ANA at 4 7 8 14 15	149

Single results of other studies
Substance	target	test	test system	setting	how to read	measurement	result
PhoQ, residues 284 288 289 292 302 303 SLSVQF	PhoP, residues 12 14 15 18 19 AQCLL (Escherichia coli, UniProt P23836)	Sort-seq, measured: YFP reporter	E. coli	PhoQ-PhoP variant library, with: 10 µM Mg2+	baseline: high Mg2+ state, higher = stronger signaling	fold induction	1.28

Repeated from above (study 1):
Strand	E-score
ATCCGATG	0.0711
CCCTGCCA	0.0427
GTCTTCGA	0.13
CCTCTCTC	-0.16
GATTTAGA	-0.016
ACGTTTAC	-0.202
AAAAGTCA	-0.0838
GAAAAAGC	0.108
AAGTTGAA	0.0415
GCCCTTGA	0.0438
ACAGCCCC	-0.144
ATTGGAGC	-0.0427
AATCATAC	-0.00301
